# Experimental data pooled from the literature.
# A part holds a random share of what one study measured. Changes are numbered by the printed parent chain.

# Study 1 — method: universal PBM; form: double-stranded DNA, one strand shown; sample: in vitro; concentration: 600 nM; direction: higher = stronger binding
# Target: Sal-like protein 4, full length isoform A (SALL4, Homo sapiens, UniProt Q9UJQ4, residues 1-1053)
# UniProt Q9UJQ4, sequence (whole entry, looked up): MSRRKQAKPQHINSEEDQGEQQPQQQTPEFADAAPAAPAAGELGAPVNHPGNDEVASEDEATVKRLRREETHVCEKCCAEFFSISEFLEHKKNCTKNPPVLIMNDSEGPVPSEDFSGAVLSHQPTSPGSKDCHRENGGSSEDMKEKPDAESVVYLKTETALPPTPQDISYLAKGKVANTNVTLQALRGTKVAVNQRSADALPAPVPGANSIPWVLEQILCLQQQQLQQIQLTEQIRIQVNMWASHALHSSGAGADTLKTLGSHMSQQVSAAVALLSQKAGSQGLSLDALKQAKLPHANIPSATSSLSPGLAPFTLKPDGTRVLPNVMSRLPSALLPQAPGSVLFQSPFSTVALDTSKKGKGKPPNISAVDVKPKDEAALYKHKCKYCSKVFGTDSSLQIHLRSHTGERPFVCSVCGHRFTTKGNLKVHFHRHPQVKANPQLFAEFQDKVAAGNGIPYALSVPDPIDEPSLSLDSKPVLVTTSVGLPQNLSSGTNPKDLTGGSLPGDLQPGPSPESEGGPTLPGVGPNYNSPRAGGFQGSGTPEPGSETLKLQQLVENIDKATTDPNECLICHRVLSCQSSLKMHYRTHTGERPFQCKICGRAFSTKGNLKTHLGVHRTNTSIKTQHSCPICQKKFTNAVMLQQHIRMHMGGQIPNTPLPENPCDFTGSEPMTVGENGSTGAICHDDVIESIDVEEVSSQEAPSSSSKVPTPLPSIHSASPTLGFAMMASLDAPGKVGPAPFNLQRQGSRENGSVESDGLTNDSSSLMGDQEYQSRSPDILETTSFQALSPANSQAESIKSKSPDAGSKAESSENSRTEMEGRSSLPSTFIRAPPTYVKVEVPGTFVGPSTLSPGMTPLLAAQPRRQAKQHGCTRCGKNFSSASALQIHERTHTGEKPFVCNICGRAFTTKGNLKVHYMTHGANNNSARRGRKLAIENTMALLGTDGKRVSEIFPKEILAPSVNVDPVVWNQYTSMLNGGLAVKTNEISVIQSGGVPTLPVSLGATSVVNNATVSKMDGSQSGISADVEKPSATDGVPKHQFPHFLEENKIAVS
# Setting: 8-mer, flanks averaged, mean of replicates
Oligonucleotide,E-score
ACCCGGCC,-0.386
CGCTTTCC,-0.188
AGAGACTC,-0.0851
GCATCGGA,-0.12
ATGTAAGA,0.278
AAATGATG,0.22
AACCGTGC,-0.172
GTGCAATA,0.196
CGCGGACC,-0.369
ATGCCCAG,-0.173
ATCTGATG,0.079
CAGTCACG,-0.18
CCGGACAC,-0.28
CCGCACAG,-0.275
AGGTTATG,0.241
GTTCCAAA,0.154
AGCAAGCA,-0.104
CATGAAAC,0.205
AAACGCCG,-0.0408
TAGTGCGA,-0.0424
AGCATTTG,0.0642
CTCTTCCA,0.0394

# Study 2 — target: CCNF, cyclin fold, Cln2 fusion (human); method: yeast growth competition, sequencing; sample: yeast; setting: strong parent motif; baseline: not given; direction: higher = stronger binding
# Starting sequence: HIRA docking peptide (human); SLSKRKLELEVET
Change,normalised enrichment score
E8A,1.62
L2A,1.53
S1A,2.51
L7A,-0.998
L9A,0.0148
L9F,6.03
E12A,0.746

# Study 3 — method: protein-binding microarray; form: double-stranded DNA, one strand shown; sample: in vitro; concentration: 0.8 µM; setting: whole 60-bp probe, no competitor; direction: higher = stronger binding; constant ends, left off below: … GTCTTGATTCGCTTGACGCTGCTG
# Target: Centromere-binding protein 1, full length, N-terminal tag (CBF1, Saccharomyces cerevisiae, UniProt P17106, residues 1-351)
# UniProt P17106, sequence (whole entry, looked up): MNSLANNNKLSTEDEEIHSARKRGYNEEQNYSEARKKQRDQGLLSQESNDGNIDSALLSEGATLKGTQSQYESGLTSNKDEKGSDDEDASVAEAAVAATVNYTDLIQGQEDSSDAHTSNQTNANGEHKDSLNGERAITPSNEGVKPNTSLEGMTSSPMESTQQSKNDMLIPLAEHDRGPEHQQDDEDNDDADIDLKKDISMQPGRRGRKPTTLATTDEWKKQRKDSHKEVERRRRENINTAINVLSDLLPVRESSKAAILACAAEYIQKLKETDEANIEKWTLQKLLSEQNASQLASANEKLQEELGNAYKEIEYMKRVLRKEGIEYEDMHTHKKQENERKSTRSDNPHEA
Oligonucleotide,fluorescence intensity [a.u.]
CTACAACTATTAATCATCGTGGAAATTATTATGTTC,538
GAAGTGGTCATCCTACTGGTGATGCTTCAACATTAG,490
GAAGCAGACATGTTGTTCGTGATGATCTTTCTTTAG,529
CTACTTTTGAGCTGTTGCATCATGCTGTTATTTTTC,560
CTACAGCATTGTGGTCATGCGAGATGTCTAAGATTC,632
TGTACGAAGCTATATGTGATGAATATAGTAGTTAGG,545
CCTAACTACTATATGGCCGTGTCATAGCTTCGTACA,526
CTAGAGAACCATCATCATGTCTCTCCTCAACCTTTC,535
GAAAATACAAATAATCGTAACATCATCTCTGTCTAG,496
GAATGTCAATCACTTCACGGGACCAGTAACTCATAG,1200
CTATGCCGAACAAATCACGGCATAACCTGCAGATTC,519
CTAAAGGACCGTTCCGACGTGCGCCTTCCTGATTTC,489
CTATTGATATCGTGCGTCATGATGATAATACCGTTC,628
CTAGGGAGACCTCGACGTGTGACTTGAATTAAGTTC,1050
CTAATGTATTAGAGTCACCTAATCACCAAGCGATTC,510
GAAATTCATTATATAGCCGTGATGTATATTCCGTAG,600
CTAACTATCGTTAATGCCGTGGCATTGGCTATGTTC,505
CTATCCAGACAAAAGAACGTGCAGGCGCTTGGCTTC,599

# Study 4 — method: protein-binding microarray; form: double-stranded DNA, one strand shown; sample: in vitro; concentration: not given; direction: higher = stronger binding
# Target: Myc proto-oncogene protein, bHLH-zipper, MAX partner unstated (MYC, Homo sapiens, UniProt P01106, residues 368-449)
# UniProt P01106, sequence (368-449, looked up): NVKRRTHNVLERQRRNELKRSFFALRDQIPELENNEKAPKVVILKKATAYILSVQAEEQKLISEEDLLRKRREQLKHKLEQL
# Setting: k-mer, scored over probes, only values ≥0.25
Oligonucleotide,E-score
GACCTCGC,0.287
ATGCCGTA,0.295
CCTCGAGG,0.407
AGCACGTC,0.271
GAGCACAC,0.377
GGCGTGAC,0.314
ACATGGGT,0.309
AGCGTGGG,0.404
CACGAGCC,0.324
CGTGCCTC,0.329
GCCGCACC,0.331
AGACCATG,0.376
GCGTTTCC,0.275
ACCACGAA,0.267
AGGGCGTG,0.31
CATGTAAC,0.254
GCCCACCC,0.372
CCGTGGCA,0.285
AGGCACGC,0.375
CACGCTAG,0.335

# Some of these lines once more (study 3):
Oligonucleotide,fluorescence intensity [a.u.]
GAATGTCAATCACTTCACGGGACCAGTAACTCATAG,1200
CTATGCCGAACAAATCACGGCATAACCTGCAGATTC,519
CTAAAGGACCGTTCCGACGTGCGCCTTCCTGATTTC,489
CTATTGATATCGTGCGTCATGATGATAATACCGTTC,628
CTAGGGAGACCTCGACGTGTGACTTGAATTAAGTTC,1050
CTAATGTATTAGAGTCACCTAATCACCAAGCGATTC,510
GAAATTCATTATATAGCCGTGATGTATATTCCGTAG,600
CTAACTATCGTTAATGCCGTGGCATTGGCTATGTTC,505
